# Results pooled from the literature.
# Lines come from different studies, so protocols differ.
Structure (SMILES),system,setting,half-life
CC1(O)CC23CC(O)C4(O)C(C5OC5C4(C)C)C(C)(O)C2CCC1C3O (stereo not drawn),"mouse, plasma","oral, 0.2 mg/kg",82.2 min
COc1ccc(F)cc1S(=O)(=O)Nc1cnc2c(c1)C(=O)NCCO2,"male C57BL/6 mouse, plasma","oral, 1 mg/kg, single dose",66 min
c1ccc(C2(CCNC3CCC4(SCCS4)c4ccccc43)CCOC3(CCCC3)C2)nc1 (stereo not drawn),"male CD-1 mouse, plasma","intravenous, 0.3 mg/kg",46.8 min
C[C@@](O)(C(F)F)[C@H](NC(=O)c1ccc(C#CC#CC2CC2)cc1)C(=O)NO,"mouse, plasma","intraperitoneal, 40 mg/kg",66 min
CC(C)[C@H]1NC(=O)C[C@H]2/C=C/CCSSC[C@@H](NC1=O)C(=O)N[C@H](Cc1cccc3ccccc13)C(=O)NCC(=O)O2,"nude mouse, blood","oral, 24 mg/kg",12 min
O=c1cc(-c2ccccc2)oc2c(Br)c(O)c(O)c(O)c12,"C57BL/6 mouse, plasma","intravenous, 10 mg/kg, single dose",60 min
CCCCCCCC(=O)NC[C@H](NC(=O)[C@H](CO)NC(=O)CN)C(=O)N[C@@H](Cc1ccccc1)C(=O)N[C@@H](CC(C)C)C(=O)N[C@@H](CO)C(=O)N1CCC[C@H]1C(=O)N[C@@H](CCC(=O)O)C(=O)N[C@@H](Cc1c[nH]cn1)C(=O)N[C@@H](CCC(N)=O)C(=O)N[C@@H](CCCNC(=N)N)C(=O)N[C@H](C(=O)N[C@@H](CCC(N)=O)C(=O)N[C@H](C(=O)N[C@@H](CCCNC(=N)N)C(=O)N1CCC[C@H]1C(=O)N1CCC[C@H]1C(=O)N[C@@H](Cc1c[nH]cn1)C(=O)N[C@@H](CCCCN)C(=O)N[C@@H](C)C(=O)N1CCC[C@H]1C(=O)N[C@@H](Cc1c[nH]cn1)C(=O)N[C@H](C(=O)N[C@H](C(=O)O)C(C)C)C(C)C)C(C)C)C(C)C,"mouse, plasma","intraperitoneal, 1.2 mg/kg",20.9 min
CC[C@H](C)[C@H](NC(=O)CNC(=O)[C@H](CCSC)NC(=O)[C@H](CCC(N)=O)NC(=O)[C@H](C)NC(=O)[C@H](CCC(N)=O)NC(=O)[C@@H](NC(=O)[C@H](CC(C)C)NC(=O)[C@H](C)NC(=O)[C@H](CO)NC(=O)[C@H](CCSC)NC(=O)[C@H](CCC(=O)O)NC(=O)[C@H](CC(C)C)NC(=O)[C@H](Cc1ccc(O)cc1)NC(=O)[C@H](CO)NC(=O)[C@H](CCC(=O)O)NC(=O)[C@H](CCC(N)=O)NC(=O)[C@H](CCCNC(=N)N)NC(=O)[C@H](CCCCN)NC(=O)[C@H](CC(=O)O)NC(=O)[C@H](CC(C)C)NC(=O)[C@H](CC(N)=O)NC(=O)[C@H](Cc1ccccc1)NC(=O)[C@H](CCC(=O)O)NC(=O)[C@H](CCCCN)NC(=O)[C@@H](NC(=O)[C@H](CC(C)C)NC(=O)[C@H](CCC(=O)O)NC(=O)[C@H](CCC(=O)O)NC(=O)[C@@H](NC(=O)[C@@H](NC(=O)[C@H](CCCNC(=N)N)NC(=O)[C@H](CCCCN)NC(=O)[C@H](C)NC(=O)[C@H](Cc1ccccc1)NC(=O)[C@H](CCC(=O)O)NC(=O)[C@H](CCC(=O)O)NC(=O)[C@H](CC(C)C)NC(=O)[C@@H](N)CO)C(C)C)C(C)C)C(C)C)[C@@H](C)CC)C(=O)N[C@@H](CO)C(=O)N[C@@H](CCC(=O)O)C(=O)N[C@@H](CCCNC(=N)N)C(=O)N[C@H](C(=O)N[C@H](C(=O)N[C@@H](CCC(=O)O)C(=O)N[C@H](C(=O)N[C@H](C(=O)N[C@@H](CC(C)C)C(=O)N[C@@H](CCCNC(=N)N)C(=O)N[C@@H](Cc1c[nH]cn1)C(=O)N[C@@H](C)C(=O)N[C@@H](C)C(=O)N[C@@H](CCC(N)=O)C(=O)N[C@H](C(=O)N[C@@H](CC(C)C)C(=O)N[C@@H](CCCCN)C(=O)O)[C@@H](C)O)C(C)C)[C@@H](C)CC)[C@@H](C)CC)[C@@H](C)CC,"male mouse, plasma","intravenous, 1 mg/kg",~156 min
CCC[C@@H]1O[C@@H]2C[C@H]3[C@@H]4C[C@H](F)C5=CC(=O)CC[C@]5(C)[C@@]4(F)[C@@H](O)C[C@]3(C)[C@]2(C(=O)CO)O1,"CD-1 mouse, plasma",intravenous,~20 min

# For quick reference, copied from above:
Structure (SMILES),system,setting,half-life
CC[C@H](C)[C@H](NC(=O)CNC(=O)[C@H](CCSC)NC(=O)[C@H](CCC(N)=O)NC(=O)[C@H](C)NC(=O)[C@H](CCC(N)=O)NC(=O)[C@@H](NC(=O)[C@H](CC(C)C)NC(=O)[C@H](C)NC(=O)[C@H](CO)NC(=O)[C@H](CCSC)NC(=O)[C@H](CCC(=O)O)NC(=O)[C@H](CC(C)C)NC(=O)[C@H](Cc1ccc(O)cc1)NC(=O)[C@H](CO)NC(=O)[C@H](CCC(=O)O)NC(=O)[C@H](CCC(N)=O)NC(=O)[C@H](CCCNC(=N)N)NC(=O)[C@H](CCCCN)NC(=O)[C@H](CC(=O)O)NC(=O)[C@H](CC(C)C)NC(=O)[C@H](CC(N)=O)NC(=O)[C@H](Cc1ccccc1)NC(=O)[C@H](CCC(=O)O)NC(=O)[C@H](CCCCN)NC(=O)[C@@H](NC(=O)[C@H](CC(C)C)NC(=O)[C@H](CCC(=O)O)NC(=O)[C@H](CCC(=O)O)NC(=O)[C@@H](NC(=O)[C@@H](NC(=O)[C@H](CCCNC(=N)N)NC(=O)[C@H](CCCCN)NC(=O)[C@H](C)NC(=O)[C@H](Cc1ccccc1)NC(=O)[C@H](CCC(=O)O)NC(=O)[C@H](CCC(=O)O)NC(=O)[C@H](CC(C)C)NC(=O)[C@@H](N)CO)C(C)C)C(C)C)C(C)C)[C@@H](C)CC)C(=O)N[C@@H](CO)C(=O)N[C@@H](CCC(=O)O)C(=O)N[C@@H](CCCNC(=N)N)C(=O)N[C@H](C(=O)N[C@H](C(=O)N[C@@H](CCC(=O)O)C(=O)N[C@H](C(=O)N[C@H](C(=O)N[C@@H](CC(C)C)C(=O)N[C@@H](CCCNC(=N)N)C(=O)N[C@@H](Cc1c[nH]cn1)C(=O)N[C@@H](C)C(=O)N[C@@H](C)C(=O)N[C@@H](CCC(N)=O)C(=O)N[C@H](C(=O)N[C@@H](CC(C)C)C(=O)N[C@@H](CCCCN)C(=O)O)[C@@H](C)O)C(C)C)[C@@H](C)CC)[C@@H](C)CC)[C@@H](C)CC,"male mouse, plasma","intravenous, 1 mg/kg",~156 min
